Measured values pooled from the literature.
Method: steady-state kinetics
B1: enzyme (Thermobifida fusca, UniProt Q47RK4); chain MTDVYILDAVRTPFGRYGGALSGIRPDDLAAHVLRALAERSPGLDPAAVDDVFFGDANGAGEDNRNVARMAALLAGWPTSVPGVTLNRLCGSGMESVIAANRAIAVGDASLAVAGGVESMSRAPWVLPKPAQGFPTGHETLYSTTLGWRMVNPAMPEQWTVSLGESTEQVAATYGISRAEQDAFALRSHERAARAWAEGVFDAEITQIPGAELERDESIRETSAEKLAALKPAFRPDGTITAGNASPLNDGAAALLIGDAAAAERVGREPLARIVSRGVAAVDPDVFGIGPVQAAEIALRRAGIGWDDLSVVELNEAFAAQSLACLKLWPDLDPEIVNPNGGAIAIGHPLGASGARIVGTLAHELHRRGGGWGLAAICIGVGQGLAVVLHR
B2: FPPS (Aedes aegypti, UniProt Q17F78); chain MLSTLIRAGSLQTMGRQFARSVETPVQMQHARFISKSSEVNSDYMTMRENQTQKVSRDYNSKLQVRLKKVSRTLSTLNNSIPEAASQTIVTKSDAREFMAVFPDLVRDLTEYCKKYDNTLAPKWFVKALQYNVPQGKKNRGLAAVLAYRMLSKSEDLTPENIRRAHYLGWVIEMFQAVFLICDDAMDGSQTRRGQPCWYKLEDVKLSGINDALMIDAAIFYVLKKQFGDEPYYSKLVETFNEIKFITTIGQSLDLRSARMDVTKYTMDLYKSIVCHKTAYYTFYLPVALAMHMTGFTDPEVFRQTKTILLEIGLFYQTQDDFLDCFGDPAVTGKIGTDIEEGKCTWLSVVAMQRASDEQKELMKQCYGSSDPEKVARVKKLYEELGLPTTYAIYEEESYNMIKTHIQQISRGLPHELFFKIMEKIYRRDC
B3: enzyme (Aedes aegypti, UniProt Q1HQH4); chain MSLLARFRGFPTALLQHAKVSYSSAATAAKLQELALEENCILVNEKDQSLGNASKRDCHRVDENGNIRLHRAFSVFLFNSKGEMLLQRRSTHKITFPDCYTNACCSHPLHDIEGEREELNALGIRRAAQRRLNYELGIPLSQVRPENFHFLTRIHYADKGDGVWGEHEIDYILFLQKDVDLKPNESEVSEIRYIRRDQLDNQISGLDAPLTPWFQLILTHRLKLWWDNLHRLKKYQNLNEIERF
B4: ldh (Lactococcus cremoris, UniProt A2RKA4); chain MADKQRKKVILVGDGAVGSSYAFALVNQGIAQELGIVDLFKEKTQGDAEDLSHALAFTSPKKIYSADYSDASDADLVVLTSGAPQKPGETRLDLVEKNLRITKDVVTKIVASGFKGIFLVAANPVDILTYATWKFSGFPKNRVVGSGTSLDTARFRQALAEKVDVDARSIHAYIMGEHGDSEFAVWSHANVAGVKLEQWFQENDYLNEAEIVELFESVRDAAYSIIAKKGATFYGVAVALARITKAILDDEHAVLPVSVFQDGQYGVSDCYLGQPAVVGAEGVVNPIHIPLNDAEMQKMEASGAQLKAIIDEAFAKEEFASAVKN
B5: PPIP5K2 (Homo sapiens, UniProt O43314); chain MSEAPRFFVGPEDTEINPGNYRHFFHHADEDDEEEDDSPPERQIVVGICSMAKKSKSKPMKEILERISLFKYITVVVFEEEVILNEPVENWPLCDCLISFHSKGFPLDKAVAYAKLRNPFVINDLNMQYLIQDRREVYSILQAEGILLPRYAILNRDPNNPKECNLIEGEDHVEVNGEVFQKPFVEKPVSAEDHNVYIYYPTSAGGGSQRLFRKIGSRSSVYSPESNVRKTGSYIYEEFMPTDGTDVKVYTVGPDYAHAEARKSPALDGKVERDSEGKEVRYPVILNAREKLIAWKVCLAFKQTVCGFDLLRANGQSYVCDVNGFSFVKNSMKYYDDCAKILGNIVMRELAPQFHIPWSIPLEAED
B6: PhnY E385A (Sinorhizobium meliloti, UniProt Q92UV7); chain MTNAEVTIAVRHEPMRIAGRLVDTDDRVEVRYPWNDTVVGTVPAGRAEHAREAFAIAAAYQPKLTRYERQKILLATAEALAARKEEISDVITLELGISKADSLYEVGRAFDVFTLAGQMCIRDDGEIFSCDLTPHGKARKIFTMREPLTAISAITPFNHPLNMVAHKVAPAIATNNCVVVKPTELTPMTALLLADILYEAGLPPEMLSVVTGWPADIGMEMITNPHVDLVTFTGSVPVGKLIAANAHYKRQVLELGGNDPLIILNDLSDDDLARAADLAVAGATKNSGQRCTAVKRILCQESVADRFVPLVLERAKRLRFGDPMDRSTDLGTVIHEKAAALFEERVMRAAEEGADILYHPGRSGALLPPIVVDRVPHQSDLVLEATFGPIIPIVRVPDDDDATITLSNSTAFGLSSGVCTNDYRRMQKYIAGLKVGTVNIWEVPGYRIEMSPFGGIKDSGNGYKEGVIEAMKSFTNVKTFSLPWP
B7: enzyme (Neurospora crassa, UniProt Q7SCU7); chain ATSSVSKIVSQPRSLAEVCAALRAKLLAFLALHSNDETVQGTQRRARDAMEVIEEALRRYRPEELSLSYNGGKDCLVLLILILACWPASVQPPSSSSSSSSSSISNSSKQTLPRLQCIYIAPPDPFQEVEDFVATTTEEYHLDLARYALPMRQALDSYLDEKPHVKAVFMGTRRTDPHSEFLNNFTPTDKGWPQFMRINPVLDWHYVEIWTFIRQLDIPFCSLYSQGFSSLGGTKDTRPNPALALNAEGNKFRPAYELTRDDEERLGRDR
B8: carbamoyl phosphate synthetase large subunit L648E (Escherichia coli, UniProt P00968); chain PKRTDIKSILILGAGPIVIGQACEFDYSGAQACKALREEGYRVILVNSNPATIMTDPEMADATYIEPIHWEVVRKIIEKERPDAVLPTMGGQTALNCALELERQGVLEEFGVTMIGATADAIDKAEDRRRFDVAMKKIGLETARSGIAHTMEEALAVAADVGFPCIIRPSFTMGGSGGGIAYNREEFEEICARGLDLSPTKELLIDESLIGWKEYEMEVVRDKNDNCIIVCSIENFDAMGIHTGDSITVAPAQTLTDKEYQIMRNASMAVLREIGVETGGSNVQFAVNPKNGRLIVIEMNPRVSRSSALASKATGFPIAKVAAKLAVGYTLDELMNDITGGRTPASFEPSIDYVVTKIPRFNFEKFAGANDRLTTQMKSVGEVMAIGRTQQESLQKALRGLEVGATGFDPKVSLDDPEALTKIRRELKDAGADRIWYIADAFRAGLSVDGVFNLTNIDRWFLVQIEELVRLEEKVAEVGITGLNADFLRQLKRKGFADARLAKLAGVREAEIRKLRDQYDLHPVYKRVDTCAAEFATDTAYMYSTYEEECEANPSTDREKIMVLGGGPNRIGQGIEFDYCCVHASLALREDGYETIMVNCNPETVSTDYDTSDRLYFEPVTLEDVLEIVRIEKPKGVIVQYGGQTPEKLARALEAAGVPVIGTSPDAIDRAEDRERFQHAVERLKLKQPANATVTAIEMAVEKAKEIGYPLVVRPSYVLGGRAMEIVYDEADLRRYFQTAVSVSNDAPVLLDHFLDDAVEVDVDAICDGEMVLIGGIMEHIEQAGVHSGDSACSLPAYTLSQEIQDVMRQQVQKLAFELQVRGLMNVQFAVKNNEVYLIEVNPRAARTVPFVSKATGVPLAKVAARVMAGKSLAEQGVTKEVIPPYYSVKEVVLPFNKFPGVDPLLGPEMRSTGEVMGVGRTFAEAFAKAQLGSNSTMKKHGRALLSVREGDKERVVDLAAKLLKQGFELDATHGTAIVLGEAGINPRLVNKVHEGRPHIQDRIKNGEYTYIINTTSGRRAIEDSRVIRRSALQYKVHYDTTLNGGFATAMALNADATEKVISVQEMHAQIK
UniProt Q12043, sequence (whole entry, looked up): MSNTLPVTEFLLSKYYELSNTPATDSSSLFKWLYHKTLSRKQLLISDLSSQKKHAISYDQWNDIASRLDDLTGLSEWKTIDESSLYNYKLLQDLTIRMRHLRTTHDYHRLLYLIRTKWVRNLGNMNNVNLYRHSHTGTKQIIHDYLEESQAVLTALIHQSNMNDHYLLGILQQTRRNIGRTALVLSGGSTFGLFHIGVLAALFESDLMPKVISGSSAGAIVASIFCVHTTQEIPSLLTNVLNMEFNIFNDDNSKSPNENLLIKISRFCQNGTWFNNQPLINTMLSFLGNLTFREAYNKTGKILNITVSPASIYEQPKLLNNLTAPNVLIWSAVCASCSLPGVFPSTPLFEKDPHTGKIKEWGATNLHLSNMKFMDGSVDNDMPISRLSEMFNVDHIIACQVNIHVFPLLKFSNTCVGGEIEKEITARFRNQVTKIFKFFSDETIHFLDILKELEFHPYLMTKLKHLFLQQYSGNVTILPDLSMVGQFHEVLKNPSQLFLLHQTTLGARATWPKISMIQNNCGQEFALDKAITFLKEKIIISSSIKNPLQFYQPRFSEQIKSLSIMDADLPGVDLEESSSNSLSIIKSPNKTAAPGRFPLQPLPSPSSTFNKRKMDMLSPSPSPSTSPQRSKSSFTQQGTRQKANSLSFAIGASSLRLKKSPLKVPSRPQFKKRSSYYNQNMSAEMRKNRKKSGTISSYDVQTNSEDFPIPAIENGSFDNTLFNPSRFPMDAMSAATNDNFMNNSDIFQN
UniProt Q8IVS2, sequence (whole entry, looked up): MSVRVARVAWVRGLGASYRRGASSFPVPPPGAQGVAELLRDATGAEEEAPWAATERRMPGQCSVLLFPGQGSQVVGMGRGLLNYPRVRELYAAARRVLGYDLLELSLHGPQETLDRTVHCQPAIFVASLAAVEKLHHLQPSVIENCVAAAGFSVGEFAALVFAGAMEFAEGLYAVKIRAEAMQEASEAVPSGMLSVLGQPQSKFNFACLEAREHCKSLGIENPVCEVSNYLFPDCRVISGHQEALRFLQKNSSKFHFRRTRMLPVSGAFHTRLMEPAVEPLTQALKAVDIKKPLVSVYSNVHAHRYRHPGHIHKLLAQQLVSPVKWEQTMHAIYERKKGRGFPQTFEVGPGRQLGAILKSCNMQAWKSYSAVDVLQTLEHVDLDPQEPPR
UniProt P94679, sequence (whole entry, looked up): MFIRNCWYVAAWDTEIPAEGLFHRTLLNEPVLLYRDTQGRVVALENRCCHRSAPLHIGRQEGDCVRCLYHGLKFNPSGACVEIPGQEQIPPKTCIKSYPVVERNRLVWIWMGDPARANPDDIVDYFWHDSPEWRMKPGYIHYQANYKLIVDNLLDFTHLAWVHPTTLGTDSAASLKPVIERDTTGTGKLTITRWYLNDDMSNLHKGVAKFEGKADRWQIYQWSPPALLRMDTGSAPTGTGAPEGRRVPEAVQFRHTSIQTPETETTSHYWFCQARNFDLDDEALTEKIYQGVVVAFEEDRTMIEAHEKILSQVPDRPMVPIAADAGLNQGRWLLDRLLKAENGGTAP

Substance = B1 (enzyme); substrate = CC(C)(COP(=O)(O)OP(=O)(O)OC[C@H]1O[C@@H](n2cnc3c(N)ncnc32)[C@H](O)[C@@H]1OP(=O)(O)O)[C@@H](O)C(=O)NCCC(=O)NCCSC(=O)CCCC(=O)O; setting = pH 7.4, 37 °C; Km = 2330 µM
Substance = B2 (FPPS); substrate = CC(C)=CCOP(=O)(O)OP(=O)(O)O; setting = pH 7.5, 37 °C, with: IPP 100 µM, Mg2+ 5 mM; Km = 54.8 µM
Substance = enzyme (Trypanosoma brucei, UniProt Q8WQX5); substrate = O=c1ccn([C@@H]2O[C@H](COP(=O)(O)OP(=O)(O)OP(=O)(O)O)[C@@H](O)[C@H]2O)c(=O)[nH]1; setting = pH 8, 27 °C, apparent; Km = 6.6 µM
Substance = B3 (enzyme); substrate = C=C(C)CCO[P@@](=O)(O)OP(=O)(O)O; setting = pH 8, 35 °C; Km = 277 µM
Substance = TGL5 (Saccharomyces cerevisiae, UniProt Q12043); substrate = CCCCCCCC/C=C\CCCCCCCC(=O)OC[C@@H](O)COP(=O)(O)O; setting = pH 7.5, 30 °C, with: oleoyl-CoA 14C; Km = 18.7 µM
Substance = tsaM1 (Comamonas testosteroni, UniProt P94679); substrate = COc1cc(C(=O)O)ccc1O; setting = apparent, with: NADH 1 mM; Km = 182 µM
Substance = B4 (ldh); substrate = NC(=O)c1ccc[n+]([C@@H]2O[C@H](COP(=O)(O)OP(=O)(O)OC[C@H]3O[C@@H](n4cnc5c(N)ncnc54)[C@H](O)[C@@H]3O)[C@@H](O)[C@H]2O)c1; setting = pH 7, 30 °C, apparent; Km = 380 µM
Substance = B5 (PPIP5K2); substrate = Nc1ncnc2c1ncn2[C@@H]1O[C@H](COP(=O)(O)OP(=O)(O)OP(=O)(O)O)[C@@H](O)[C@H]1O; Km = 22 µM
Substance = B6 (PhnY E385A); substrate = O=CCP(=O)(O)O; setting = pH 7.5, 30 °C, substrate inhibition, with: NAD+; Km = 19 µM
Substance = B7 (enzyme); substrate = Nc1ncnc2c1ncn2[C@@H]1O[C@H](COP(=O)(O)OP(=O)(O)OP(=O)(O)O)[C@@H](O)[C@H]1O; setting = pH 7.5, 37 °C; Km = 84.8 µM
Substance = B8; substrate = Nc1ncnc2c1ncn2[C@@H]1O[C@H](COP(=O)(O)OP(=O)(O)OP(=O)(O)O)[C@@H](O)[C@H]1O; setting = pH 7.6, KCl 100 mM, with: glutamine 10 mM, ornithine 10 mM; Km = 1200 µM
Substance = MCAT (Homo sapiens, UniProt Q8IVS2); substrate = CC(C)(COP(=O)(O)OP(=O)(O)OC[C@H]1O[C@@H](n2cnc3c(N)ncnc32)[C@H](O)[C@@H]1OP(=O)(O)O)[C@@H](O)C(=O)NCCC(=O)NCCSC(=O)CC(=O)O; setting = pH 6.8, 20 °C, labelled substrate, with: holo-ACP 20 µM; Km = 3.1 µM
